Measurements from different studies.
Each line is one published result; not all experiments were run side by side. ± gives the spread as reported.
GZF1: GZF1 250-711 (Homo sapiens, UniProt Q9H116)
Chain of UniProt Q9H116 (whole entry, unmodified, looked up): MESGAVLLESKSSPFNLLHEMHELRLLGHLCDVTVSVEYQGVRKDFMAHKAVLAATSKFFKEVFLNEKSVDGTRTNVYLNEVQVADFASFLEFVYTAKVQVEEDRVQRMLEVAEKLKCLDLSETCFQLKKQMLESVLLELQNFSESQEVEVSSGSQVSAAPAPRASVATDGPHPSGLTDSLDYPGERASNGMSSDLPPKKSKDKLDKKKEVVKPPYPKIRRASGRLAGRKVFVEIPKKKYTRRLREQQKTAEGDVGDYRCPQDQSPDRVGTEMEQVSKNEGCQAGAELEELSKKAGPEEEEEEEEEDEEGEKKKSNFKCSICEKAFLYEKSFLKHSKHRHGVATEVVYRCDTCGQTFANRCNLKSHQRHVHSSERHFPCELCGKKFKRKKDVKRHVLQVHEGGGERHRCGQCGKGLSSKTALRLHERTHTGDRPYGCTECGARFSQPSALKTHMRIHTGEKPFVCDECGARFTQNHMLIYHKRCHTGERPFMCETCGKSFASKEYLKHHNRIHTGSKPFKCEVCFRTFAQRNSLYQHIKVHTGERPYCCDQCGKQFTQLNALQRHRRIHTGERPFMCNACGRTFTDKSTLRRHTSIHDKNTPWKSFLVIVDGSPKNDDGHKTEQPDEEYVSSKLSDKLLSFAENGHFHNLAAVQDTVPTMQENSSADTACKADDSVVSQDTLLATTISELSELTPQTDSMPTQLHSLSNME
PRIMPOL: PRIMPOL 1-560 (Homo sapiens, UniProt Q96LW4)
Chain of UniProt Q96LW4 (whole entry, looked up): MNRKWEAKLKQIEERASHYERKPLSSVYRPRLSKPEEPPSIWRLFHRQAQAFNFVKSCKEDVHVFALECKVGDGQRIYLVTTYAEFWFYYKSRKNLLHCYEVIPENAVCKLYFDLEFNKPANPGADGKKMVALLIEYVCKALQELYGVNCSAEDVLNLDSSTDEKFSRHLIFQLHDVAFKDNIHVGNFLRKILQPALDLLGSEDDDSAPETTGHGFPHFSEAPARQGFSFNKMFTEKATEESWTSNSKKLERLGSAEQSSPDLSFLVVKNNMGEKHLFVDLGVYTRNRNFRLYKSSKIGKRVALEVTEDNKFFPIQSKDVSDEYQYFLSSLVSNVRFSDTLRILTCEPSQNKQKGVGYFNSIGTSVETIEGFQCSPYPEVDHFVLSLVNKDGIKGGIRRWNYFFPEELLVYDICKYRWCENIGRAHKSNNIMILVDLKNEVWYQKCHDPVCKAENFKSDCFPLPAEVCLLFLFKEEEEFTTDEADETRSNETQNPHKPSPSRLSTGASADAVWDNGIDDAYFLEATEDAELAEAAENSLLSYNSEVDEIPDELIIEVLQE
Chain of UniProt P39990 (whole entry, looked up): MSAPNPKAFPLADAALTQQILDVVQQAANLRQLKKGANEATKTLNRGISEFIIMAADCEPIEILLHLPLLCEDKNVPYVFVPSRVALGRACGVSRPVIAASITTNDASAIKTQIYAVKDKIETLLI
Chain of UniProt P14866 (whole entry, looked up): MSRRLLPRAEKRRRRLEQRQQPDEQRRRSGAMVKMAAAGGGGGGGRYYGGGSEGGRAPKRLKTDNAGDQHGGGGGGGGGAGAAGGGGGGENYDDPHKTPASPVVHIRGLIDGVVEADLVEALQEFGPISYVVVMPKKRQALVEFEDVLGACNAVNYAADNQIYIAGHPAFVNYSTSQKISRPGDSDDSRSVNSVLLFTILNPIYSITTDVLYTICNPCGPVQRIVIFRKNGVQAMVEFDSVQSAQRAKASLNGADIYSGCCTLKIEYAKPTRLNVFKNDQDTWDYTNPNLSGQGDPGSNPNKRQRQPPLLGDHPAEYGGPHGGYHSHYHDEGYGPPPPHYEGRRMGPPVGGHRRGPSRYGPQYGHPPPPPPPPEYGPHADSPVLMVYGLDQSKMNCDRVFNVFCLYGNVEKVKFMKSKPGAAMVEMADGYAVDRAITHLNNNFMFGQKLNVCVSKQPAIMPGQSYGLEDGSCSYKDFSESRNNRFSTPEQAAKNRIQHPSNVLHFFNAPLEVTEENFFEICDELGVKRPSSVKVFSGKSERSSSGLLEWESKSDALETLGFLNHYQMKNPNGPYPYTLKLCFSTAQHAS
Chain of UniProt Q96RJ3 (whole entry, looked up): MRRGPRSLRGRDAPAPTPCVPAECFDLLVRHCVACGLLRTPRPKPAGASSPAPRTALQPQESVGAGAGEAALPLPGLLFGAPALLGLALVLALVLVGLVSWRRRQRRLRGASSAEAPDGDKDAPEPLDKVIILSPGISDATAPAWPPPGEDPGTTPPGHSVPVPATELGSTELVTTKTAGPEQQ

Oligonucleotide | target | technique | molecule type | added | reading | endpoint | value
GATCTCTGCGTGCGCGTCCGTAGCCTACTG (dsDNA) | GZF1 | competition | double-stranded DNA, one strand shown |  |  | binding | no binding
CACGCUCAUGCACACACCCACA (ssRNA) | HNRNPL full length assumed (Homo sapiens, UniProt P14866) | SPR | RNA |  |  | Kd | 11.7 ± 3.6 nM
GGGGCUCAAUGCGUUCACGUUUAUUCACAUUUUUGAAUUGAGC (structured RNA; 2'-F pyrimidines) | TFRC fragment (Homo sapiens) | SPR | folded RNA |  |  | Kd | 0.000692 nM
DNA 1 TTTGCCTCGAGCCAGCCGCAGACGCAC / DNA 2 TCGTCGGCGTCCTAGGTGCGTCTGCGGCTGGCTCGAGGC (dsDNA; primer-template, 24 bp, 15 nt overhang) | PRIMPOL | fluorescence polarization | double-stranded DNA | Mg2+ 5 mM |  | Kd | 350 ± 160 nM
GATCTCTGCGCACGCGTCTATAGCCTACTG (dsDNA) | GZF1 | competition | double-stranded DNA, one strand shown |  |  | binding | no binding
AACGUACUUUAAGGCCUAUUGAGGAAACUC (ssDNA; all dC Pp-dC; all dU Nap-dU) | PCSK9 fragment D374Y (Homo sapiens) | filter binding |  |  |  | Kd | 0.0052 nM
GCAGCCCAUGAUGGCUGAAUCCGAAAUCCUCGAUGGGUCCAGCUUGAUGUCUUUGCAGC (RNA hairpin (Homo sapiens); K-turn internal loop) | SNU13 full length assumed (Saccharomyces cerevisiae, UniProt P39990) | EMSA |  | Mg2+ 1.5 mM |  | Kd | 180 nM
DNA 1 TTTGGGGGAAGGATTC / DNA 2 TCACGGAATCCTTCCCCC (dsDNA; primer-template, 13 bp, 5 nt overhang) | PRIMPOL | fluorescence polarization | double-stranded DNA | Mg2+ 5 mM |  | Kd | 910 ± 550 nM
GATCTCTGCGTGCGCGTCTGCGGCCTACTG (dsDNA) | GZF1 | competition | double-stranded DNA, one strand shown |  |  | binding | no binding
GGGAGGACGAUGCGGGAGGCUCGGCUUAGUAAGUAAAGAUUGAGCCCGCAUGACGCUCCGAGUGCCAGACGACUCGCCCGA (structured RNA; 2'-F U and C) | TNFRSF13C 1-76 (Homo sapiens, UniProt Q96RJ3) | filter binding | folded RNA | tRNA 20 nM | higher = more RNA bound | relative binding | > 36 % RNA retained
DNA 1 TTTGGGGGAAGGATTC / DNA 2 TCGCATCACGTCACGGAATCCTTCCCCC (dsDNA; primer-template, 13 bp, 15 nt overhang) | PRIMPOL | fluorescence polarization | double-stranded DNA | Mg2+ 5 mM |  | Kd | 240 nM
TATTTGGAATGCGCCGCTATAAACCCGGCT (dsDNA) | GZF1 | EMSA | double-stranded DNA, one strand shown |  |  | binding | binds
